# Results pooled from the literature.
# Each numbered part is a random draw from the data of one study; scales do not carry over between parts. Positions count from the first letter of the parent shown.
# UniProt Q08499, sequence (whole entry, looked up): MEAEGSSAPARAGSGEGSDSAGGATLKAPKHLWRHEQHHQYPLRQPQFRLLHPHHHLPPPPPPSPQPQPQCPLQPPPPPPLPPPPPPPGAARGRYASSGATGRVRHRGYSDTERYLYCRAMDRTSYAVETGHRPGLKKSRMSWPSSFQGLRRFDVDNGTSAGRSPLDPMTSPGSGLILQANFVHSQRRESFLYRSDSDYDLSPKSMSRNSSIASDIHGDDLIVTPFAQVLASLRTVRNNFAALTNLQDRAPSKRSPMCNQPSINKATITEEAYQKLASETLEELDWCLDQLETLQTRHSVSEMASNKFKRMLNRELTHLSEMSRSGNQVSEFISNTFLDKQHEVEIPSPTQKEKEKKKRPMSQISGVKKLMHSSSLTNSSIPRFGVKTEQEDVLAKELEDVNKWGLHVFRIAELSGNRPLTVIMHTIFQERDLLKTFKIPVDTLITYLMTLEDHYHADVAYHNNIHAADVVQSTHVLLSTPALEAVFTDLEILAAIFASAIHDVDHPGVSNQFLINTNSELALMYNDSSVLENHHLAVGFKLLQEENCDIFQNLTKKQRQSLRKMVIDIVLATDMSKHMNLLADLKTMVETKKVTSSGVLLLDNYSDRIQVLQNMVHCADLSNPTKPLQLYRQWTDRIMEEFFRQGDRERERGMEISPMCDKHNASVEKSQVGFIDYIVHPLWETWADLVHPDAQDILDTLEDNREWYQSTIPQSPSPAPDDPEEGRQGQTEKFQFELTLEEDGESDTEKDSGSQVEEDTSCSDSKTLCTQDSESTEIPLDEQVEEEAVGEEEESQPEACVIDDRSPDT

# Study 1
# Target: UDP-N-acetylglucosamine--peptide N-acetylglucosaminyltransferase 110 kDa subunit (OGT, Homo sapiens, UniProt O15294)
# UniProt O15294, sequence (whole entry, looked up): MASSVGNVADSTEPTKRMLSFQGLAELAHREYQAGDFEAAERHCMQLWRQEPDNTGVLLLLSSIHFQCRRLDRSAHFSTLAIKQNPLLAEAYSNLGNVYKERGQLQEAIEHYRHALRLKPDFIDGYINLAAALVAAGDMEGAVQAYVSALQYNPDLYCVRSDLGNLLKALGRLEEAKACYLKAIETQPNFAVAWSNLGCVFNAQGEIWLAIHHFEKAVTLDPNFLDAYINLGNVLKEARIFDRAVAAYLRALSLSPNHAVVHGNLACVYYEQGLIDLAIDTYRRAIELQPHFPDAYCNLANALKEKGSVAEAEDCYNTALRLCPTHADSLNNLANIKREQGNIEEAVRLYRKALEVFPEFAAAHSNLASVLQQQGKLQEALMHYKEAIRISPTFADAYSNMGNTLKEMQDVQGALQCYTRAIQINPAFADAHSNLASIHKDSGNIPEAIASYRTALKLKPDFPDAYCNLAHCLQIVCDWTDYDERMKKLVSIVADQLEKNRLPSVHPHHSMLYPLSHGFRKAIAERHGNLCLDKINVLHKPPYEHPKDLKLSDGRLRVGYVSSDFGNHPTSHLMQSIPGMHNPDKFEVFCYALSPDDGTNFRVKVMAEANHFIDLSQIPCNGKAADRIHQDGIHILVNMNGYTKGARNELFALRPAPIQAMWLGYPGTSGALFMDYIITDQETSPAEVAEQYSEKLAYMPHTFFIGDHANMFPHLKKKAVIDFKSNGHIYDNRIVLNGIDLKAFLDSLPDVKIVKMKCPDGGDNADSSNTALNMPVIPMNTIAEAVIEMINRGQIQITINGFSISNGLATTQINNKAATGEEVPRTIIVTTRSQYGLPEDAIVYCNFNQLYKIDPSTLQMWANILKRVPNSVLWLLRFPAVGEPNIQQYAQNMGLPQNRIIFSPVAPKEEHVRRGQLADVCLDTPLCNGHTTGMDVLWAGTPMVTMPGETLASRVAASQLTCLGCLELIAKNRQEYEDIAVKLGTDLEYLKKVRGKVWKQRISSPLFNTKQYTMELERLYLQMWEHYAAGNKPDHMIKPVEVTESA
# Effect on: binding
# Method: phage display NGS
# Molecule type: peptide
# Tested at: concentration not given
# Baseline: input library
Sequence,enrichment fold change
HPIHPHRNKFDVMFI,3.34
RSFATTSYPPVYQIF,4.18
NPHAHHIVSHTGFVH,4.32
HVFHDQQSLLHMDKH,9.73
HPKFLPSMHHYPQGD,4.4
QLFPPVYIMKLDSQ,12.2
FPHHILQHHRQDDFH,4.95
HRMDHHDHQPHYDAS,6.21

# Study 2
# Target: vanadate, free oxyanion
# Method: microfluidic competitive inhibition
# Sample: in vitro, cell-free expressed
# Tested at: not given
# Notes: derived from inhibition constants, unchanged parent 676 nM
# Direction: lower = stronger binding
# Parent: PafA, mature enzyme, eGFP fusion (Elizabethkingia meningoseptica, UniProt Q9KJX5); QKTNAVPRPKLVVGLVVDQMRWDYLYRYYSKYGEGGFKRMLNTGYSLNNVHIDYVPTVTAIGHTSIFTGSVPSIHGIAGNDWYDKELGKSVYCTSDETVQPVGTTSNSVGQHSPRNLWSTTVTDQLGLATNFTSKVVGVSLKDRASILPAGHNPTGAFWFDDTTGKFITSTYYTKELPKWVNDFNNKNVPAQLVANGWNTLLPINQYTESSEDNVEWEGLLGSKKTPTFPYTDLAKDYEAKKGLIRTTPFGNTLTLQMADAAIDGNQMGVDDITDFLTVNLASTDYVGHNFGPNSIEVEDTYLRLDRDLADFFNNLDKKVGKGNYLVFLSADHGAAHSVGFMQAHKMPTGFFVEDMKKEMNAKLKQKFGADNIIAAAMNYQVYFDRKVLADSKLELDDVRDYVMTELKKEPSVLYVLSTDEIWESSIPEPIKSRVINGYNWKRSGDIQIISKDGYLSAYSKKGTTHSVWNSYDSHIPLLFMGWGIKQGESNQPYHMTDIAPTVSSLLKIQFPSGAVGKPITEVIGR
Substitution,oxyanion analog dissociation constant
E34V,649 nM
V194A,607 nM
N280G,1.34 µM
K85V,522 nM
P411V,539 nM
R246V,3.07 µM
P56V,2.54 µM
T163V,539 nM

# Study 3
# Target: CCNE2, cyclin fold, Cln2 fusion (human)
# Method: yeast growth competition, sequencing
# Sample: yeast
# Notes: strong parent motif
# Baseline: not given
# Direction: higher = stronger binding
# Parent: viral docking peptide; TSVRRALFTGGSD; partner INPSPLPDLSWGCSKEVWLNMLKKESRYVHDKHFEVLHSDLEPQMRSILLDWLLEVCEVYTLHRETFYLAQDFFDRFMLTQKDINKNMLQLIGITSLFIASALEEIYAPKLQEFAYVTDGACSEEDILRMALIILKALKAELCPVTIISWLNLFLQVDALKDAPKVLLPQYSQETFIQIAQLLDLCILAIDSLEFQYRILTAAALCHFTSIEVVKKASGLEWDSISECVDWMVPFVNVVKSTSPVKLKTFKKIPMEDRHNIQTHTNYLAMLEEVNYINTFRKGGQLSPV
Substitution,normalised enrichment score
G11L,3.44
G10Y,3.03
F8S,0.109
S2G,4.48
T9Y,2.21
G10D,5.03
R5V,0.312
V3M,0.83

# Other studies, line by line
Structure (SMILES),target,effect on,mode,quantity,value
CNC(=O)c1ccc(-c2cnn3ccc(C(=O)N(C)c4ccc(Cl)c(C(=O)OC)c4)cc23)cc1,"3',5'-cyclic-AMP phosphodiesterase 4D (PDE4D, Homo sapiens, UniProt Q08499)",cell-free assay,inhibitor,IC50,2220 nM

# Repeated from above (study 3):
Substitution,normalised enrichment score
R5V,0.312
